{"data": "Assay results from different studies"}
{"Compound": "CC1C(=NNC(=O)c2ccncc2)C(C)C(c2ccc(Br)cc2)OC1c1ccc(Br)cc1 (stereo not shown)", "organism": "Aspergillus flavus", "test": "microbial growth", "MIC": "100 µg/mL"}
{"Compound": "[O-][N+]1=C(c2ccsc2)C2=NCCCN2c2ccccc21", "organism": "Eggerthella lenta", "test": "microbial growth", "system": "ATCC43055", "MIC": "0.25 µg/mL"}
{"Compound": "N#Cc1ccc(-c2c[nH]c(CNC(=O)Nc3ncc(Sc4ccccn4)s3)n2)cc1", "organism": "Bacteroides ovatus", "test": "broth microdilution", "system": "ATCC 8485", "conditions": "without verapamil", "MIC": "> 128 µM"}
{"Compound": "[O-][N+]1=C(c2ccccc2)C2=NCCCN2c2ncccc21", "organism": "Peptostreptococcus anaerobius", "MIC": "0.25 µg/mL"}
{"Compound": "CC(C)C[C@@H]1NC(=O)[C@H](C)NC(=O)[C@H](NC(=O)[C@H](C)NC(=O)[C@@H](CCCCN)NC(=O)[C@@H](CC(C)C)NC(=O)[C@@H](N)Cc2ccccc2)[C@H](C(N)=O)OC(=O)[C@H](CC(C)C)NC1=O", "organism": "Bacillus subtilis Bacillus subtilis", "system": "ATCC 6051", "conditions": "tested as TFA salt", "MIC": "2 µg/mL"}
{"Compound": "[O-][N+]1=C(c2ccccc2)C2=NCCN2c2ccccc21", "organism": "Eggerthella lenta", "test": "microbial growth", "system": "ATCC43055", "MIC": "≤ 0.06 µg/mL"}
{"Compound": "CC[C@H](C)[C@H](NC(=O)[C@H](CO)NC(=O)[C@H](CO)NC(=O)[C@H](Cc1ccccc1)NC(=O)CN)C(=O)N[C@@H](Cc1ccccc1)C(=O)N[C@@H](CCCNC(=N)N)C(N)=O", "organism": "Escherichia coli", "system": "ATCC 8739", "conditions": "with: 6 µM NH4Cl", "MIC": "> 128 µM"}
{"Compound": "CC[C@H](C)[C@H](NC(=O)[C@@H](NC(=O)CN)C(C)C)C(=O)N[C@@H](Cc1ccccc1)C(=O)N[C@@H](CC(N)=O)C(=O)N[C@@H](C)C(=O)N[C@@H](CC(C)C)C(=O)N[C@@H](CCCCN)C(=O)NCC(=O)N[C@H](C(=O)N[C@@H](C)C(=O)N[C@@H](CCCCN)C(=O)N[C@H](C(=O)N[C@H](C(=O)N[C@@H](C)C(=O)N[C@@H](C)C(=O)N[C@@H](CCC(N)=O)C(=O)N[C@@H](CC(C)C)C(=O)N[C@@H](CC(C)C)C(=O)N[C@@H](CCCCN)C(=O)N[C@@H](CCCCN)C(=O)N[C@@H](C)C(=O)N[C@@H](CCCNC(=N)N)C(=O)N[C@H]1CSSC[C@@H](C(=O)O)NC(=O)[C@H](CO)NC(=O)[C@H](CCCCN)NC(=O)[C@H](CC(=O)O)NC(=O)[C@H](CC(C)C)NC(=O)[C@H](CCCCN)NC1=O)C(C)C)[C@@H](C)O)C(C)C", "organism": "Staphylococcus aureus", "system": "MRSA NCTC 12493, Mueller-Hinton broth", "conditions": "with: KCl 4.5 mM", "MIC": "4 µM"}
{"Compound": "CC(C)[C@H](NC(=O)[C@H]1NC(=O)[C@H](CO)NC(=O)[C@H](CC(N)=O)NC(=O)[C@@H](N)Cc2c[nH]c3cc(ccc23)C1C(N)=O)C(=O)N[C@H]1Cc2cn(cn2)C(c2ccc(O)cc2)[C@@H](C(=O)N[C@@H](CCCNC(=N)N)C(=O)N[C@@H](Cc2ccccc2)C(=O)O)NC(=O)[C@H](CO)NC1=O (stereo partly shown)", "organism": "Veillonella ratti", "system": "KLE 2365", "MIC": "16 µg/mL"}
{"Compound": "CC[C@H](C)[C@H](NC(=O)[C@H](Cc1c[nH]c2ccccc12)NC(=O)[C@H](CCCNC(=N)N)NC(=O)[C@H](CCC(N)=O)NC(=O)[C@@H](NC(=O)[C@H](Cc1c[nH]c2ccccc12)NC(=O)[C@H](CCCNC(=N)N)NC(=O)[C@H](CCCNC(=N)N)NC(=O)[C@H](C)NC(=O)[C@H](C)NC(=O)[C@H](C)NC(=O)[C@@H](NC(=O)[C@H](CCCCN)NC(=O)[C@@H]1CCCN1C(=O)[C@H](CCCNC(=N)N)NC(=O)[C@H](Cc1c[nH]c2ccccc12)NC(=O)[C@H](CCCNC(=N)N)NC(=O)[C@H](CCCNC(=N)N)NC(=O)[C@@H](NC(=O)[C@H](Cc1c[nH]c2ccccc12)NC(=O)[C@H](CCCNC(=N)N)NC(=O)[C@H](CCC(N)=O)NC(=O)[C@@H](NC(=O)[C@H](Cc1c[nH]c2ccccc12)NC(=O)[C@H](CCCNC(=N)N)NC(=O)[C@@H](N)CCCNC(=N)N)C(C)C)[C@@H](C)CC)C(C)C)C(C)C)C(=O)N[C@@H](CCCNC(=N)N)C(=O)N[C@@H](CCCNC(=N)N)C(=O)N[C@@H](Cc1c[nH]c2ccccc12)C(=O)N[C@@H](CCCNC(=N)N)C(=O)N1CCC[C@H]1C(=O)N[C@@H](CCCCN)C(=O)N[C@H](C(N)=O)C(C)C", "organism": "Malassezia furfur", "test": "cell growth", "system": "DTO 383-D9", "conditions": "48 h, 30 °C", "MIC": "≤ 0.3 µM"}
{"note": "Some of these lines once more:"}
{"Compound": "CC[C@H](C)[C@H](NC(=O)[C@@H](NC(=O)CN)C(C)C)C(=O)N[C@@H](Cc1ccccc1)C(=O)N[C@@H](CC(N)=O)C(=O)N[C@@H](C)C(=O)N[C@@H](CC(C)C)C(=O)N[C@@H](CCCCN)C(=O)NCC(=O)N[C@H](C(=O)N[C@@H](C)C(=O)N[C@@H](CCCCN)C(=O)N[C@H](C(=O)N[C@H](C(=O)N[C@@H](C)C(=O)N[C@@H](C)C(=O)N[C@@H](CCC(N)=O)C(=O)N[C@@H](CC(C)C)C(=O)N[C@@H](CC(C)C)C(=O)N[C@@H](CCCCN)C(=O)N[C@@H](CCCCN)C(=O)N[C@@H](C)C(=O)N[C@@H](CCCNC(=N)N)C(=O)N[C@H]1CSSC[C@@H](C(=O)O)NC(=O)[C@H](CO)NC(=O)[C@H](CCCCN)NC(=O)[C@H](CC(=O)O)NC(=O)[C@H](CC(C)C)NC(=O)[C@H](CCCCN)NC1=O)C(C)C)[C@@H](C)O)C(C)C", "organism": "Staphylococcus aureus", "system": "MRSA NCTC 12493, Mueller-Hinton broth", "conditions": "with: KCl 4.5 mM", "MIC": "4 µM"}
